Assay results from different studies.
Every numbered part comes from another study and shows a few of its results, in no order.

Set 1
Target: Sal-like protein 4, full length isoform B (SALL4, Homo sapiens, UniProt Q9UJQ4-2, residues 1-616)
Method: universal PBM
Form: double-stranded DNA, one strand shown
Matrix: in vitro
Concentration: not given
Notes: 8-mer, flanks averaged, mean of replicates
Reading: higher = stronger binding
| Strand | E-score |
| --- | --- |
| ATCACTGA | 0.0901 |
| CCGTAAGC | -0.112 |
| GAGGCAAA | 0.0247 |
| AGGCCTTC | -0.0956 |
| GTTCCTCA | -0.05 |
| GCACGACC | -0.233 |
| AAGTATCG | 0.0793 |
| TAGCCGGA | -0.252 |
| GATCCAAA | 0.155 |
| AAGCATAG | -0.0481 |
| GCGCATCC | -0.201 |
| CACCGCTC | -0.318 |

Set 2
Target: Interferon regulatory factor 5, full length, phosphomimetic (IRF5, Homo sapiens, UniProt Q13568-2, residues 1-514, K96S/S451D/S453D/S456D/S462D)
Method: protein-binding microarray
Form: double-stranded DNA, one strand shown
Matrix: in vitro
Concentration: 250 nM
Notes: 60-bp whole probe
Added: salmon DNA 0.4 mg/ml
Relative to: random background probes
Reading: higher = stronger binding
Shared flanks, not repeated: GCCTAGCAC … GTCTTGATTCGCTTGACGCTGCTG
| Strand | log fluorescence [z-score] |
| --- | --- |
| GACGATATCAGAATGGAGACGTGCTAG | 0.481 |
| GACCGACTGGACACTGGGGACGTGCTA | -0.414 |
| GACGGTATCCTTCTCATGACGTGCTAG | 0.308 |
| GACGGTACCCTTATCCTGACGTGCTAG | -0.177 |
| TTTGGTTTCCTTCTCCTTTAGTGCTAG | 1.91 |
| GACGGTTTCGGCTTCGGGACGTGCTAG | 6.78 |
| GACGATCTCAATTTCGAGACGTGCTAG | 1.83 |
| GACGGTTTCGACGCTGGGGACGTGCTA | 3.87 |
| TTAGAACAGAGACTGGATTAGTGCTAG | -0.13 |
| TTAGATTTCAGTCTCCATTAGTGCTAG | 1.9 |
| GACGTTTCCGGTTTCGGGACGTGCTAG | 5.16 |
| AACGGTATCCTTCTCCTGACGTGCTAG | 0.22 |
| TCAATAATGGATATATAACTGTGCTAG | 0.487 |
| TCACATATTCTCTTCTTACTGTGCTAG | 0.967 |
| TCATCTCTACTTGTGTCACTGTGCTAG | 0.488 |
| GACGGTCCCCTACTGCTGACGTGCTAG | -0.513 |
| GACGAACAGGGGTTTCGAGACGTGCTA | 1.27 |
| TCACCTCTCTTTCCAACACTGTGCTAG | 0.262 |
| CTGGCTGGGGTGGTGGCAGTGTGCTAG | -0.651 |

Set 3
Target: Fragile X messenger ribonucleoprotein 1, C-terminal low-complexity region (Fmr1, Mus musculus, UniProt P35922)
Method: RNA Bind-n-Seq
Form: RNA
Matrix: in vitro
Concentration: 200 nM
Notes: whole 134-nt RNA, ends assumed
Added: 150 mM LiCl
Relative to: input library
Reading: higher = stronger binding
All molecules: 7-deaza-guanosine replaces G
| Strand | log2 enrichment |
| --- | --- |
| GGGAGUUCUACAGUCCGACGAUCUCCUGUGCUACACAUCGUAUGUACCGAAUCGGGGAAAAAGGGAAAAAGGGGAAAAAGGGAAAGUAUUAUGUUACGCCGUUCGGAUCUGCAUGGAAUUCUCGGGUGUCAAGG | -0.458 |
| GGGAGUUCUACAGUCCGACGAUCACCAUGCAGGUGGAAAUCUUUGGGAAGUGGGGCAAGGGGGGGAUAGGGAGGGGGGUAACACUUUGGGAACAGGUGGUCCCAGGUCGUUUCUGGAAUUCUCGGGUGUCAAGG | 1.29 |
| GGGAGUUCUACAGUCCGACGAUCAGUCCUGUGCUACACAUCGUAUGUACCGAAUCGGAAAGGUUUUUUUGGAAAAAAAGGAAAGUAUUAUGUUACGCCGUUCGGAUCUGCACUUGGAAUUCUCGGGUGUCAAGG | -2.65 |
| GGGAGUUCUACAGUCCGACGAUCAAGUCCUGUGCUACACAUCGUAUGUACCGAAUCGGGUUUUUUUGGGUUUGGGAGGGAAAGUAUUAUGUUACGCCGUUCGGAUCUGCACUUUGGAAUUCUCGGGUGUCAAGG | -1.19 |
| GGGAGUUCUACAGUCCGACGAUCACCAUGCAAAUGGGCAUCUUUGGGAAGUGGGGCAAGGGGGGGAUAGGGAGGGGGGUAACACUUUGGGAACAGGUGGUCCCAGGUCGUUUCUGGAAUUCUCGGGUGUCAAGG | 1.18 |
| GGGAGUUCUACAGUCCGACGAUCCUCAAGUCCUGUGCUACACAUCGUAUGUACCGAAUCGGGAGGGAGGGGAGGGGAAAGUAUUAUGUUACGCCGUUCGGAUCUGCACUUCCAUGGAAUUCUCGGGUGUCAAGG | -0.585 |
| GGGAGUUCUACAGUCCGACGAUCCCUCAAGUCCUGUGCUACACAUCGUAUGUACCGAAUCGGGGAGGAGGGAGGGAAAGUAUUAUGUUACGCCGUUCGGAUCUGCACUUCCAGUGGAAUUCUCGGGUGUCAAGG | -0.477 |
| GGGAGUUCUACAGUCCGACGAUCAGUCCUGUGCUACACAUCGUAUGUACCGAAUCGGGGCCCCGGGCCCCGGGCCCCGGGAAAGUAUUAUGUUACGCCGUUCGGAUCUGCACUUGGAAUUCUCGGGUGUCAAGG | -3 |

Mixed results
| Substance | target | test | system | conditions | how to read | quantity | result |
| --- | --- | --- | --- | --- | --- | --- | --- |
| PhoQ, residues 284 288 289 292 302 303 NSMLDC | PhoP, residues 12 14 15 18 19 NHTVL (Escherichia coli, UniProt P23836) | Sort-seq, refers to: YFP reporter | E. coli | PhoQ-PhoP variant library, added: 10 µM Mg2+ | relative to: high Mg2+ state, higher = stronger signaling | fold induction | 14.5 |
